Results pooled from the literature.
Protocols differ between the studies behind these lines. ± marks the error that the study gave.
Method: steady-state kinetics
B1: enzyme A178R/D177A/M179S/P184R (Levilactobacillus brevis, UniProt Q03Q85); chain MKVTVVGCTHAGTFAIKQILAEHPDAEVTVYERNDVISFLSCGIALYLGGKVADPQGLFYSSPEELQKLGANVQMNHNVLAIDPDQKTVTVEDLTNHAQTTESYDKLVMTSGSWPIVPKIPGIDSDRVKLCKNWAHAQALIEDAKEAKRITVIGAGYIGAELAEAYSTTGHDVTLIARSARVMRKYFDADFTDVIEQDYRDHGVQLALGETVESFTDSATGLTIKTDKNSYETDLAILCIGFRPNTDLLKGKVDMAPNGAIITDDYMRSSNPDIFAAGDSAAVHYNPTHQNAYIPLATNAVRQGILVGKNLVKPTVKYMGTQSSSGLALYDRTIVSTGLTLAAAKQQGLNAEQVIVEDNYRPEFMPSTEPVLMSLVFDPDTHRILGGALMSKYDVSQSANTLSVCIQNENTIDDLAMVDMLFQPNFDRPFNYLNILAQAAQAKVAQSVNA
B2: Paox H64Q (Mus musculus, UniProt Q8C0L6); chain MAFPGPRVLVVGSGIAGLGAAQKLCSHRAAPHLRVLEATASAGGRIRSERCFGGVVELGAHWIQGPSQDNPVFQLAAEFGLLGEKELSEENQLVDTGGHVALPSMIWSSSGTSVSLELMTEMARLFYGLIERTREFLNESETPMASVGEFLKKEISQQVASWTEDDEDTRKRKLAILNTFFNIECCVSGTHSMDLVALAPFGEYTVLPGLDCILAGGYQGLTDRILASLPKDTVAFDKPVKTIHWNGSFQEAAFPGETFPVLVECEDGARLPAHHVIVTVPLGFLKEHQDTFFEPPLPAKKAEAIKKLGFGTNNKIFLEFEEPFWEPDCQFIQVVWEDTSPLQDTALSLQDTWFKKLIGFLVQPSFESSHVLCGFIAGLESEFMETLSDEEVLLSLTQVLRRVTGNPQLPAAKSVRRSQWHSAPYTRGSYSYVAVGSTGDDLDLMAQPLPEDGTGTQLQVLFAGEATHRTFYSTTHGALLSGWREADRLVSLWDSQVEQSRPRL
B3: oxdC T165S (Bacillus subtilis, UniProt O34714); chain MKKQNDIPQPIRGDKGATVKIPRNIERDRQNPDMLVPPETDHGTVSNMKFSFSDTHNRLEKGGYAREVTVRELPISENLASVNMRLKPGAIRELHWHKEAEWAYMIYGSARVTIVDEKGRSFIDDVGEGDLWYFPSGLPHSIQALEEGAEFLLVFDDGSFSENSSFQLTDWLAHTPKEVIAANFGVTKEEISNLPGKEKYIFENQLPGSLKDDIVEGPNGEVPYPFTYRLLEQEPIESEGGKVYIADSTNFKVSKTIASALVTVEPGAMRELHWHPNTHEWQYYISGKARMTVFASDGHARTFNYQAGDVGYVPFAMGHYVENIGDEPLVFLEIFKDDHYADVSLNQWLAMLPETFVQAHLDLGKDFTDVLSKEKHPVVKKKCSK
B4: enzyme (Neurospora crassa, UniProt Q7SCU7); chain ATSSVSKIVSQPRSLAEVCAALRAKLLAFLALHSNDETVQGTQRRARDAMEVIEEALRRYRPEELSLSYNGGKDCLVLLILILACWPASVQPPSSSSSSSSSSISNSSKQTLPRLQCIYIAPPDPFQEVEDFVATTTEEYHLDLARYALPMRQALDSYLDEKPHVKAVFMGTRRTDPHSEFLNNFTPTDKGWPQFMRINPVLDWHYVEIWTFIRQLDIPFCSLYSQGFSSLGGTKDTRPNPALALNAEGNKFRPAYELTRDDEERLGRDR
B5: FDC1 (Saccharomyces cerevisiae, UniProt Q03034); chain MRKLNPALEFRDFIQVLKDEDDLIEITEEIDPNLEVGAIMRKAYESHLPAPLFKNLKGASKDLFSILGCPAGLRSKEKGDHGRIAHHLGLDPKTTIKEIIDYLLECKEKEPLPPITVPVSSAPCKTHILSEEKIHLQSLPTPYLHVSDGGKYLQTYGMWILQTPDKKWTNWSIARGMVVDDKHITGLVIKPQHIRQIADSWAAIGKANEIPFALCFGVPPAAILVSSMPIPEGVSESDYVGAILGESVPVVKCETNDLMVPATSEMVFEGTLSLTDTHLEGPFGEMHGYVFKSQGHPCPLYTVKAMSYRDNAILPVSNPGLCTDETHTLIGSLVATEAKELAIESGLPILDAFMPYEAQALWLILKVDLKGLQALKTTPEEFCKKVGDIYFRTKVGFIVHEIILVADDIDIFNFKEVIWAYVTRHTPVADQMAFDDVTSFPLAPFVSQSSRSKTMKGGKCVTNCIFRQQYERSFDYITCNFEKGYPKGLVDKVNENWKRYGYK
B6: enzyme (Plasmodium falciparum, UniProt Q8ILK1); chain MTNKFNKINKNNYETREAVYYDKGNRINSNKEKEMKEFKEEELKEFFNKWNPFYKEKLNSEIEKKNFINFDGEKKMENGNNEYFNSYNYIHIHEDMIKDEVRTRTYYDSIRKNEHLIKDKIVLDVGCGTGILSFFAATHGAKHVYSIEKSDIIYTAIKIRDENNLTDKVTFLKGLAEEIELPVDKVDIIISEWMGYCLLYENMLDTVLYCRDKWLKEGGLIFPDKAHMYIAGIEDSLYREEKFDFWKNCYDLNFSSVLPIIKEEVVIDYVDRNFVVTDTCCILTLDLNTCTPDQLSFVSPFQLKMIRKDYLHALVIWFDISFSACHTEVNFTTGPYGAHTHWKQIVLYTDHIITAERNETLKGIFALKRNQKNKRHLDMKLHYIFDGVHTKAKSTQLFNIS
B7: PRODH2 157-515 (Homo sapiens, UniProt Q9UF12); chain YGQFVAGETAEEVKGCVQQLRTLSLRPLLAVPTEEEPDSAAKSGEAWYEGNLGAMLRCVDLSRGLLEPPSLAEASLMQLKVTALTSTRLCKELASWVRRPGASLELSPERLAEAMDSGQNLQVSCLNAEQNQHLRASLSRLHRVAQYARAQHVRLLVDAEYTSLNPALSLLVAALAVRWNSPGEGGPWVWNTYQACLKDTFERLGRDAEAAHRAGLAFGVKLVRGAYLDKERAVAQLHGMEDPTQPDYEATSQSYSRCLELMLTHVARHGPMCHLMVASHNEESVRQATKRMWELGIPLDGTVCFGQLLGMCDHVSLALGQAGYVVYKSIPYGSLEEVIPYLIRRAQENRSVLQGARRE
B8: Tcur_2987 Y332L (Thermomonospora curvata, UniProt D1A807); chain ACSEERAAGARPSATQTTGTATEPFHGPHQAGIATPPQAHAVFLGLDLRKGTGRKELGRLMRLLTDDARRLTQGRPALADPEPDLAPLPSRLTFTFGFGPGLFKAAGLEKQRPEGLRPLPPFKVDRLEDRWSGGDLLVQICCDDPITLAHALRMTVKDARAFTRVRWVQRGFRRSPGVQSSGATQRNLMGQLDGTVNPVPGTADFDQAVWVQDGPEWLRGGTTLVLRRIRMELEKWDEADPAGKEFAVGRRLTSGAPLTGRHEHDEPDFDAVDSAGFPVIAENAHIRLAHVDSPRLRMLRRPYNLDEGLTADGRSDAGLLFAAYQADIDRQFIPVQRRLDEGGDLLNLWTTPIGSAVFAIPPGCDENGWIGQGLLG
B9: WlbA (Thermus thermophilus, UniProt Q72KX8); chain MTRFALTGLAGYIAPRHLKAIKEVGGVLVASLDPATNVGLVDSFFPEAEFFTEPEAFEAYLEDLRDRGEGVDYLSIASPNHLHYPQIRMALRLGANALSEKPLVLWPEEIARLKELEARTGRRVYTVLQLRVHPSLLALKERLGQEKGAKDVVLTYVTGRGKWYGKSWKVDEAKSGGLATNIGIHFFDLLAWLFGRALHVEVHARTPTVNAGYLELEGARVRWFLSIDPSFVPEPLRRQGKRTYRSIAVDGEEVEFSEGFTDLHTEVYRKTLAGEGFGLDEAAEAIRVAALLRTLPLSQPSPENRHPFLG
B10: Pck1 A467G (Rattus norvegicus, UniProt P07379); chain MPPQLHNGLDFSAKVIQGSLDSLPQEVRKFVEGNAQLCQPEYIHICDGSEEEYGRLLAHMQEEGVIRKLKKYDNCWLALTDPRDVARIESKTVIITQEQRDTVPIPKSGQSQLGRWMSEEDFEKAFNARFPGCMKGRTMYVIPFSMGPLGSPLAKIGIELTDSPYVVASMRIMTRMGTSVLEALGDGEFIKCLHSVGCPLPLKKPLVNNWACNPELTLIAHLPDRREIISFGSGYGGNSLLGKKCFALRIASRLAKEEGWLAEHMLILGITNPEGKKKYLAAAFPSACGKTNLAMMNPTLPGWKVECVGDDIAWMKFDAQGNLRAINPENGFFGVAPGTSVKTNPNAIKTIQKNTIFTNVAETSDGGVYWEGIDEPLAPGVTITSWKNKEWRPQDEEPCAHPNSRFCTPASQCPIIDPAWESPEGVPIEGIIFGGRRPAGVPLVYEALSWQHGVFVGAAMRSEATAGAEHKGKVIMHDPFAMRPFFGYNFGKYLAHWLSMAHRPAAKLPKIFHVNWFRKDKNGKFLWPGFGENSRVLEWMFGRIEGEDSAKLTPIGYVPKEDALNLKGLGDVNVEELFGISKEFWEKEVEEIDKYLEDQVNADLPYEIERELRALKQRISQM
B11: BaiA2 (Clostridium scindens, UniProt P19337); chain MNLVQDKVTIITGGTRGIGFAAAKIFIDNGAKVSIFGETQEEVDTALAQLKELYPEEEVLGFAPDLTSRDAVMAAVGQVAQKYGRLDVMINNAGITSNNVFSRVSEEEFKHIMDINVTGVFNGAWCAYQCMKDAKKGVIINTASVTGIFGSLSGVGYPASKASVIGLTHGLGREIIRKNIRVVGVAPGVVNTDMTNGNPPEIMEGYLKALPMKRMLEPEEIANVYLFLASDLASGITATTVSVDGAYRP
B12: ltaE H83N (Escherichia coli, UniProt P75823); chain MIDLRSDTVTRPSRAMLEAMMAAPVGDDVYGDDPTVNALQDYAAELSGKEAAIFLPTGTQANLVALLSHCERGEEYIVGQAANNYLFEAGGAAVLGSIQPQPIDAAADGTLPLDKVAMKIKPDDIHFARTKLLSLENTHNGKVLPREYLKEAWEFTRERNLALHVDGARIFNAVVAYGCELKEITQYCDSFTICLSKGLGTPVGSLLVGNRDYIKRAIRWRKMTGGGMRQSGILAAAGIYALKNNVARLQEDHDNAAWMAEQLREAGADVMRQDTNMLFVRVGEENAAALGEYMKARNVLINASPIVRLVTHLDVSREQLAEVAAHWRAFLAR

B1 (enzyme A178R/D177A/M179S/P184R) — kcat/Km (NC(=O)C1=CN([C@@H]2O[C@H](COP(=O)(O)OP(=O)(O)OC[C@H]3O[C@@H](n4cnc5c(N)ncnc54)[C@H](O)[C@@H]3O)[C@@H](O)[C@H]2O)C=CC1; pH 7.5, 37 °C, per site): 430000 ± 90000 M⁻¹ s⁻¹
B2 (Paox H64Q) — kcat/Km (c1ccc(CNCCCCNCc2ccccc2)cc1; pH 8.6, 30 °C): 1600 ± 600 M⁻¹ s⁻¹
Plasma amine oxidase (Bos taurus, UniProt Q29437) — kcat/Km (CN(C)CCOc1ccc2cc(CN)ccc2c1; pH 7.2, 30 °C): 2.16e+06 M⁻¹ s⁻¹
B3 (oxdC T165S) — kcat/Km (O=C(O)C(=O)O; pH 4.2, 25 °C): 3170 M⁻¹ s⁻¹
B4 (enzyme) — kcat/Km (Nc1ncnc2c1ncn2[C@@H]1O[C@H](COP(=O)(O)OP(=O)(O)OP(=O)(O)O)[C@@H](O)[C@H]1O; pH 7.5, 37 °C): 7700 M⁻¹ s⁻¹
B5 (FDC1) — kcat/Km (COc1cc(/C=C/C(=O)O)ccc1O; pH 7, 25 °C, apparent kcat, incomplete cofactor occupancy, apparent): 21000 ± 4500 M⁻¹ s⁻¹
B6 (enzyme) — kcat/Km (C[S+](CC[C@H](N)C(=O)[O-])C[C@H]1O[C@@H](n2cnc3c(N)ncnc32)[C@H](O)[C@@H]1O; 37 °C): 9830 M⁻¹ s⁻¹
B7 (PRODH2 157-515) — kcat/Km (O=C(O)[C@@H]1C[C@@H](O)CN1; pH 7.5, 25 °C, together with: CoQ1 electron acceptor 200 µM): 0.93 ± 0.05 M⁻¹ s⁻¹
protein (Allochromatium vinosum, UniProt P45370) — kcat/Km (CC[C@@H](O)CC(=O)SCCNC(=O)CCNC(=O)[C@H](O)C(C)(C)COP(=O)(O)OP(=O)(O)OC[C@H]1O[C@@H](n2cnc3c(N)ncnc32)[C@H](O)[C@@H]1OP(=O)(O)O; pH 7.8, 30 °C): 892000 M⁻¹ s⁻¹
B8 (Tcur_2987 Y332L) — kcat/Km (Nc1c(S(=O)(=O)O)cc(Nc2cccc(S(=O)(=O)CCOS(=O)(=O)O)c2)c2c1C(=O)c1ccccc1C2=O; pH 3, sigmoidal kinetics, together with: H2O2 1 mM): 2.5e+06 M⁻¹ s⁻¹
B9 (WlbA) — kcat/Km (CC(=O)N[C@H]1[C@@H](OP(=O)(O)OP(=O)(O)OC[C@H]2O[C@@H](n3ccc(=O)[nH]c3=O)[C@H](O)[C@@H]2O)O[C@H](C(=O)O)[C@@H](O)[C@@H]1O; pH 8.5, 25 °C, together with: enzyme-bound NAD(H)): 560000 M⁻¹ s⁻¹
MMP9 (Homo sapiens, UniProt P14780) — kcat/Km (CC(=O)NCC(=O)N1CCC[C@H]1C(=O)N[C@@H](CC(C)C)C(=O)NCC(=O)N[C@@H](CC(C)C)C(=O)N[C@@H](CO)C(=O)N[C@@H](CC(C)C)C(=O)NCC(=O)N[C@@H](CCCCN)C(N)=O): 50000 M⁻¹ s⁻¹
enzyme (Pseudomonas aeruginosa, UniProt Q9HXU0) — kcat/Km (Nc1ncnc2c1ncn2[C@@H]1O[C@H](COP(=O)(O)OP(=O)(O)OP(=O)(O)O)[C@@H](O)[C@H]1O; pH 7.5, 37 °C, apparent): 36000 M⁻¹ s⁻¹
B10 (Pck1 A467G) — kcat/Km (C=C(OP(=O)(O)O)C(=O)O; pH 7.5, 25 °C): 15000 M⁻¹ s⁻¹
B11 (BaiA2) — kcat/Km (C[C@H](CCC(=O)SCCNC(=O)CCNC(=O)[C@H](O)C(C)(C)COP(=O)(O)OP(=O)(O)OC[C@H]1O[C@@H](n2cnc3c(N)ncnc32)[C@H](O)[C@@H]1OP(=O)(O)O)[C@H]1CC[C@H]2[C@@H]3CC[C@@H]4CC(=O)CC[C@]4(C)[C@H]3CC[C@]12C; pH 8.7, 37 °C, together with: NADH): 93600 M⁻¹ s⁻¹
B12 (ltaE H83N) — kcat/Km (C[C@H](O)[C@H](N)C(=O)O; pH 7, 30 °C, potassium phosphate 20 mM, retro-aldol cleavage, together with: PLP 500 µM): 750 M⁻¹ s⁻¹

Repeated from above:
B7 (PRODH2 157-515) — kcat/Km (O=C(O)[C@@H]1C[C@@H](O)CN1; pH 7.5, 25 °C, together with: CoQ1 electron acceptor 200 µM): 0.93 ± 0.05 M⁻¹ s⁻¹
B6 (enzyme) — kcat/Km (C[S+](CC[C@H](N)C(=O)[O-])C[C@H]1O[C@@H](n2cnc3c(N)ncnc32)[C@H](O)[C@@H]1O; 37 °C): 9830 M⁻¹ s⁻¹
